# Measurements collected from several papers.
# Several values in a cell are separate wells, animals, samples, runs or records. ± marks the error that the study gave.
Compound,assay,test system,conditions,how to read,measurement,result
CN(C(=O)n1cnc(-c2ccc[n+]([O-])c2)c1)C1CCCCC1,,"Wistar rat, pons","oral, 10 mg/kg/day, 4 h, repeated 5 days",,concentration,106 ± 37.4 ng/g
O=C(O)CCCOc1ccc(F)cc1-c1cc(-c2ccccc2C(F)(F)F)n(-c2ccccc2)n1,,"male Crl:CD(SD) rats, spleen","intravenous, 25 µg/kg, 14 d",,organ weight,0.71 ± 0.09 g
O=c1ccc2ncc(=O)n3c2n1C[C@H]3CN1CCC(NCc2cc3c(cn2)OCCC3)CC1,,"healthy human participants, plasma","oral, dose not given, median, with: rifampicin",,tlag,0 h
O.O.O.O.O.O.[Cl-].[Cl-].[Co+2],,"rat female, urine","oral, 10 mg/kg single, day 3",,urinary cobalt creatinine-corrected,0.0357 µg/µmol creatinine
Nc1nc2cc(-c3ccc4ncc(C(=O)N5CCOCC5)n4c3)ccc2o1,"refers to: Hyperglycemia, any cause, all grades",patients with advanced solid tumours,dose not given,,patients with adverse events,37%
CC[C@H](C)CCCCC(=O)N[C@@H](CCN)C(=O)N[C@H](C(=O)N[C@@H](CCN)C(=O)N[C@H]1CCNC(=O)[C@H]([C@@H](C)O)NC(=O)[C@H](CCN)NC(=O)[C@H](CCN)NC(=O)[C@H](CC(C)C)NC(=O)[C@@H](Cc2ccccc2)NC(=O)[C@H](CCN)NC1=O)[C@@H](C)O,,"critically ill non-survivors, plasma","intravenous, 2.2 mg/kg/day, median",,Cmax steady state,6000 ng/mL
CCN1[C@@H](C(=O)NC23CCC(C(=O)O)(CC2)CC3)[C@H](c2cccc(Cl)c2F)[C@]2(C(=O)Nc3cc(Cl)ccc32)C12CCCCC2,,patients with advanced solid tumours,"oral, dose not given, all doses",,Lymphocytopenia incidence,42.9%
Cc1cc(C)c(CNC(=O)c2cc(Cl)c3c(c2C)O[C@@](C)([C@H]2CC[C@H](N(C)C)CC2)O3)c(=O)[nH]1,,"human, relapsed/refractory NHL","concentration not given, all TEAEs, grade 5",,Hypotension incidence,0%
CC(C)CC(=O)OC[C@H]1O[C@@](C#N)(c2ccc3c(N)ncnn23)[C@H](O)[C@@H]1O,,human plasma,9 µM,,fraction bound,0.802
CCN(CCO)CCCC(C)Nc1ccnc2cc(Cl)ccc12 (centres unmarked),refers to: Fatigue grade 2,newly diagnosed glioblastoma patients,"oral, 400 mg/dose, with radiotherapy and temozolomide",,patients with adverse event,33%
O=C(Nc1ccccc1)C1CCN(C(=O)Oc2cccnc2)CC1,Bond-Lader VAS,healthy women,20 mg,"relative to: pre-dose baseline, direction not given",change in Strong-feeble score,-3.7
CCCCCCCC(=O)N[C@@H](CCCCN)C(=O)N[C@@H](CCCCN)C(=O)N[C@@H](C)C(=O)N[C@@H](CC(C)C)C(=O)N[C@@H](CCCCN)C(=O)N[C@@H](CC(C)C)C(=O)N[C@@H](C)C(=O)N[C@@H](CCCCN)C(=O)N[C@@H](CCCCN)C(=O)N1CCC[C@H]1C(=O)N[C@@H](CC(C)C)C(=O)N[C@@H](CCCCN)C(=O)N[C@@H](CC(C)C)C(=O)N[C@@H](CC(C)C)C(=O)N[C@@H](CCCCN)C(N)=O,,"female ICR CD-1 mice, whole blood","intravenous bolus, 10 mg/kg",,AUC(0-inf),976 ± 416 ng·h/mL
CCc1ccc(CC/C=C/c2ccc3c(c2)C(=O)CC3)cc1,,"Sprague-Dawley rat, female, blood","oral, 120 mg/kg/day, 14 days",,MCH,19.4 pg
C[C@@H]1NC(=O)[C@H](CCCCNC(=O)CO/N=C/C(=O)NCCCC[C@@H]2NC(=O)[C@@H](Cc3ccccc3)NC(=O)[C@H](CC(=O)O)NC(=O)CNC(=O)[C@H](CCCNC(=N)N)NC2=O)NC(=O)CNC(=O)[C@@H]2CCCN2C(=O)[C@H](CCCCNC(=O)CO/N=C/C(=O)NCCCC[C@@H]2NC(=O)[C@@H](Cc3ccccc3)NC(=O)[C@H](CC(=O)O)NC(=O)CNC(=O)[C@H](CCCNC(=N)N)NC2=O)NC(=O)[C@H](CCCCNC(=O)[C@H](CCCCN)NC(=O)[C@H](Cc2ccccc2)NC(=O)CNC(=O)CN2CCCNCCNCCCNCC2)NC(=O)[C@H](CCCCNC(=O)CO/N=C/C(=O)NCCCC[C@@H]2NC(=O)[C@@H](Cc3ccccc3)NC(=O)[C@H](CC(=O)O)NC(=O)CNC(=O)[C@H](CCCNC(=N)N)NC2=O)NC(=O)CNC(=O)[C@@H]2CCCN2C(=O)[C@H](CCCCNC(=O)CO/N=C/C(=O)NCCCC[C@@H]2NC(=O)[C@@H](Cc3ccccc3)NC(=O)[C@H](CC(=O)O)NC(=O)CNC(=O)[C@H](CCCNC(=N)N)NC2=O)NC1=O [copper-64 labelled],,"normal mice, heart","intravenous, 0.74 MBq, 24 h post-injection",,tissue uptake,1.1 ± 0.13 %ID/g
CCN1CCN(Cc2ccc(Nc3ncc(F)c(-c4cc(F)c5nc6n(c5c4)[C@H](C)CCC6)n3)nc2)CC1,,advanced solid tumour patients,"dose not given, Phase Ia monotherapy",,"Hematuria incidence, grade ≥3",0%
C[C@]1(CO)Cc2ncn(-c3ccc(C#N)c(Cl)c3)c2C(=O)O1,,human,"10 mg, European food-effect part, fasted",,drug-related TEAEs,25%
Cn1c(-c2ccc(C(N)=O)cc2F)nnc1C(C)(C)Oc1c(F)cc(Cl)cc1F,,human,"oral, 3 mg, single ascending dose",,musculoskeletal disorder TEAE,0%
CO[C@H]1C[C@@H]2CC[C@@H](C)[C@@](O)(O2)C(=O)C(=O)N2CCCC[C@H]2C(=O)O[C@H]([C@H](C)C[C@@H]2CC[C@@H](OC(=O)NCCOCCOCCOCCOCCOCCOCCOCCOCCC(=O)N3CCc4cc(Cn5nc(-c6ccc7oc(N)nc7c6)c6c(N)ncnc65)ccc4C3)[C@H](OC)C2)C[C@@H](O)[C@H](C)/C=C(\C)[C@@H](O)[C@@H](OC)C(=O)[C@H](C)C[C@H](C)/C=C/C=C/C=C/1C,,patients with advanced solid tumours,"intravenous, dose not given, any grade",,incidence of Dyspnea TEAE,28.1%
COc1ccc(C[C@@H]2NC(=O)[C@H]([C@@H](C)O)NC(=O)[C@@H]3[C@@H]4CCN3C(=O)[C@@H]3Cc5cn(c6ccc(F)cc56)CCCCCCN(Cc5ccc(cc5)CCNC(=O)[C@]5(C)CCCN5C2=O)C(=O)CCC(=O)N[C@@H](C)C(=O)N[C@H](CNC(=O)CCCCC[N+](C)(C)C)C(=O)N[C@@H](Cc2cccc(c2)CNC(=O)CO4)C(=O)N3)cc1,refers to: Nausea,humans,"concentration not given, Study-001",,participants with adverse event,2%
O=c1cc(-c2ccc(O)c(O)c2)oc2cc(O)cc(O)c12,,"male Sprague-Dawley rat, obese","oral, 100 mg/kg of neohesperidin, 24 to 36 h, after β-glucuronidase/sulfatase hydrolysis",,"urinary excreted amount, total",96.8 ± 14 ng
Cn1cncc1-c1c(F)cncc1NC(=O)c1c(N)nn2cc(F)cnc12,,human patients,"oral, up to 40 mg once daily",,grade ≥3 white blood cells decreased,0%
CC1(C)C(/C=C(\Cl)C(F)(F)F)C1C(=O)OC(C#N)c1cccc(Oc2ccccc2)c1 (centres unmarked),refers to: CYP2C19,"human, age 6 months",,,enzyme contribution to clearance,0.34%
CN1CC[C@@H](c2c(O)cc(O)c3c(=O)cc(-c4ccc(C(F)(F)F)cc4Cl)oc23)[C@@H]1CO,refers to: febrile neutropenia,AML,"oral, 150 mg, grade 3 to 4, intermittent dosing",,patients with adverse event,0%
N#C[C@@H]1CC(F)(F)CN1C(=O)CNC(=O)c1ccnc2ccc(OCCCN3CCN(C(=O)CN4CCN(CC(=O)[O-])CCN(CC(=O)[O-])CC4)CC3)cc12.[18F-].[Al+3],,"healthy rat, kidney","iv, 2 h",,tissue uptake,0.7 ± 0.09 %ID/g
CC(C)C[C@H](NC(=O)[C@H](CCC(N)=O)NC(=O)[C@H](C)NC(=O)[C@H](C)NC(=O)[C@H](CCCNC(=N)N)NC(=O)[C@H](CCCNC(=N)N)NC(=O)[C@H](CCCNC(=N)N)NC(=O)[C@H](CC(C)C)NC(=O)[C@H](Cc1c[nH]cn1)NC(=O)[C@@H](NC(=O)[C@H](CCCCN)NC(=O)[C@H](CCCNC(=N)N)NC(=O)[C@H](CCCNC(=N)N)NC(=O)[C@H](CCCNC(=N)N)NC(=O)[C@H](CCC(N)=O)NC(=O)[C@H](CCCNC(=N)N)NC(=O)[C@H](CCCNC(=N)N)NC(=O)[C@H](CCCCN)NC(=O)[C@H](CCCCN)NC(=O)[C@H](CCCNC(=N)N)NC(=O)CNC(=O)[C@@H](N)Cc1ccc(O)cc1)[C@@H](C)O)C(=O)N[C@@H](CCCCN)C(N)=O,flinch jump test,rat,"bilateral CA1 microinjection, dose not given",relative to: saline,flinch threshold,increased
O[C@H]1CCCN[C@@H]1CCCn1cnc2c(Cl)c(Cl)ccc21,,healthy human,"oral, 150 mg multiple doses",,nausea prevalence,8.33%
C[C@]1(O)C[C@@](N)(c2ccc(-c3nc4n(c3-c3ccccc3)COc3ccncc3-4)cc2)C1,,"human, advanced or metastatic solid tumours","24 mg intermittent, phase I dose escalation",,patients with decreased appetite,25%
CC[C@H](C)[C@H](NC(=O)[C@H](CCCCN)NC(=O)[C@H](CCC(=O)O)NC(=O)[C@H](CCCCN)NC(=O)[C@H](CO)NC(=O)[C@H](CCCCN)NC(=O)[C@H](CCCNC(=N)N)NC(=O)[C@H](Cc1ccccc1)NC(=O)[C@H](Cc1ccccc1)NC(=O)[C@H](CC(=O)O)NC(=O)CNC(=O)[C@H](CC(C)C)NC(=O)[C@@H](N)CC(C)C)C(=O)NCC(=O)N[C@@H](CCCCN)C(=O)N[C@@H](CCC(=O)O)C(=O)N[C@@H](Cc1ccccc1)C(=O)N[C@@H](CCCCN)C(=O)N[C@@H](CCCNC(=N)N)C(=O)N[C@H](C(=O)N[C@H](C(=O)N[C@@H](CCC(N)=O)C(=O)N[C@@H](CCCNC(=N)N)C(=O)N[C@H](C(=O)N[C@@H](CCCCN)C(=O)N[C@@H](CC(=O)O)C(=O)N[C@@H](Cc1ccccc1)C(=O)N[C@@H](CC(C)C)C(=O)N[C@@H](CCCNC(=N)N)C(=O)N[C@@H](CC(N)=O)C(=O)N[C@@H](CC(C)C)C(=O)N[C@H](C(=O)N1CCC[C@H]1C(=O)N[C@@H](CCCNC(=N)N)C(=O)N[C@H](C(=O)N[C@@H](CCC(=O)O)C(=O)N[C@@H](CO)C(=O)O)[C@@H](C)O)C(C)C)[C@@H](C)CC)C(C)C)[C@@H](C)CC,LC-MS,50% pooled human serum,"40 µM, 30 min, pH 7.5, 37 °C",relative to: 0 h,remaining intact peptide,5.05% and 4.55% and 6.97%
N=c1c2c(-c3ccccc3)c(-c3ccccc3)n(Cc3ccccc3)c2ncn1[C@H]1CC[C@H](O)CC1,,"cynomolgus monkey, male, urine","intravenous, 0.5 mg/kg, 0-144 h",relative to: dose,unchanged drug excreted in urine,< 1%
COc1ccc([C@@H](O)c2cc(-c3ncnc4cc(N5CCOCC5)ccc34)c(F)cc2Cl)nn1,,"patients, advanced solid tumours","oral, 300 mg twice daily, treatment-emergent, with: avelumab",relative to: patients,vomiting incidence,4%
CN1CCN(S(=O)(=O)c2cc([N+](=O)[O-])ccc2N(CCOS(C)(=O)=O)CCOS(C)(=O)=O)CC1,,"naive NOD/SCID mice, pooled blood","intraperitoneal, 25 mg/kg, week 4",,globulin,16 g/L
COc1cc2c(Oc3ccc4[nH]c(C)cc4c3F)ccnc2cc1OCC1(N)CC1,,paediatric recurrent refractory sarcoma,"concentration not given, whole group",,grade 1 or 2 ALP elevation,29.4%
N#Cc1ccc(N2CCN(Cc3ccc(COc4cccc5c4CN([C@H]4CCC(=O)NC4=O)C5=O)cc3)CC2)c(F)c1,population PK model,human,"oral, BLQ concentrations excluded",,intercompartmental clearance,37.5 L/h
COc1ccc(-c2c(-c3ccc(C#N)c(F)c3)nc(N3CCC(N)CC3)n(C)c2=O)cc1F,refers to: conjunctival hemorrhage,neuroendocrine neoplasm patients,"oral, 60 mg, dose expansion",,grade 3-4 TRAE incidence,0%
COc1cccc(Oc2ccccc2NC(=O)CNC(=O)c2cccc3ccccc23)c1,,"esterase-deficient SCID mice, male","oral, 100 mg/kg/day, 14 days, toxicity study",,serum albumin,3 g/dL and 3.1 g/dL
Cn1ncc(-c2nc(N[C@H]3CC[C@H](N)CC3)ncc2Cl)c1CC1CC1,HPLC-MS/MS,"patients, plasma","oral, 5 mg, day 5",,half-life,18.3 h
CC(C)[C@@H]1NC(=O)CNC(=O)[C@H](CC(N)=O)NC(=O)[C@H](CCCNC(=N)N)NC(=O)[C@H](Cc2ccc(O)cc2)NC(=O)[C@H](C(C)C)NC(=O)[C@@H](NC(=O)[C@@H](NC(=O)[C@H](CC(N)=O)NC(=O)[C@H](Cc2c[nH]c3ccccc23)NC(=O)[C@H](C)NC(=O)[C@H](Cc2ccccc2)NC(=O)CN)C(C)C)CSSC[C@@H](C(=O)N[C@@H](Cc2c[nH]cn2)C(=O)N[C@@H](CCCNC(=N)N)C(=O)N[C@@H](CCCNC(=N)N)C(=O)N[C@@H](C)C(=O)N[C@@H](CC(N)=O)C(N)=O)NC(=O)[C@H](C(C)C)NC(=O)[C@H](CCCNC(=N)N)NC1=O,"circular dichroism, refers to: α-Helix",PBS,"80 µM, pH 7.4, with: LTA 1 µM",,secondary structure content,5.88%
CC(C)n1c(C2CCNCC2)nc2c([N+](=O)[O-])c(Br)c(Br)cc21,refers to: Pneumonia,AML patients,"dose not given, all doses",,grade ≥3 adverse events,32%
